Assay results from different studies.
A part holds a random share of what one study measured. Substitutions count along the parent as printed.

Series 1
Target: Histone acetyltransferase KAT6A, both winged helices, GST fusion (KAT6A, Homo sapiens, UniProt Q92794, residues 1-181)
Technique: protein binding microarray
Molecule type: double-stranded DNA, one strand shown
Sample: in vitro
Concentration: not given
Setting: 8-mer, flanks averaged, mean of 2 arrays, mostly near background
Reference: not given
Reading: higher = stronger binding
Quantity: E-score
Residues (chain): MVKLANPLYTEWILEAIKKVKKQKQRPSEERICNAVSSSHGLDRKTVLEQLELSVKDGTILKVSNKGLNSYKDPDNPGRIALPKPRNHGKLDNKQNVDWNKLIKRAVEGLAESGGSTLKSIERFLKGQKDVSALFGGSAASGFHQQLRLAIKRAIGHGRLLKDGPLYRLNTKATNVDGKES
AAAGGCAA: -0.21
ATGTTGTC: 0.0342
AGACCTAC: -0.0753
AAAGAGAA: -0.0216
GGGCACGA: -0.0502
CGCGAAAC: 0.264
CAGCCCCC: -0.171
ATTAATGA: -0.0604
GGCAACAA: -0.115
TACTTTAA: -0.0981

Series 2
Target: Sal-like protein 4, full length isoform B (SALL4, Homo sapiens, UniProt Q9UJQ4-2, residues 1-616)
Technique: universal PBM
Molecule type: double-stranded DNA, one strand shown
Sample: in vitro
Concentration: not given
Setting: 8-mer, flanks averaged, mean of replicates
Reading: higher = stronger binding
Quantity: E-score
Residues (chain): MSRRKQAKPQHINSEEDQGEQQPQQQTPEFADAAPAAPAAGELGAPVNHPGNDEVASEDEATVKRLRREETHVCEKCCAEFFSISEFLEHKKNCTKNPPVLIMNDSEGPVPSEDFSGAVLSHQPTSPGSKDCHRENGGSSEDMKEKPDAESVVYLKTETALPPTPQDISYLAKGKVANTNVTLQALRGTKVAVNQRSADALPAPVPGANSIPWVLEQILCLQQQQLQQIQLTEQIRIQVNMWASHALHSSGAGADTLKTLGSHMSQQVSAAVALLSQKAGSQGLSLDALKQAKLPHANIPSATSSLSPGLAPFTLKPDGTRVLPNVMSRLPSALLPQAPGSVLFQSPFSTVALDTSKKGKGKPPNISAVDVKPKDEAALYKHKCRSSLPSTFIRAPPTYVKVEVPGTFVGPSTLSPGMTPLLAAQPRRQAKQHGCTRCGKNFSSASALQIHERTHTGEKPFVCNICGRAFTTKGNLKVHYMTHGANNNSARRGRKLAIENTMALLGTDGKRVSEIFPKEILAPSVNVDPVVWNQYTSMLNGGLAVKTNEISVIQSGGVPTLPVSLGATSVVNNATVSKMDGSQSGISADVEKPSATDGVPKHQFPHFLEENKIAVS
GCAAGGAC: -0.216
ATCCTACG: -0.0948
AGGGAAAG: 0.017
GACGTCGC: -0.213
ATTCACTG: 0.117
GCACGTTA: -0.0218
CTTAGTAA: 0.0653
GGGACAAA: -0.0394

Series 3
Target: ABI1, truncated, D143A, DHFR fusion (Arabidopsis thaliana)
Technique: DHFR PCA, deep sequencing
Sample: yeast
Setting: methotrexate growth selection, single substitutions
Together with: (+)-ABA 58 µM
Reference: wild-type fitted maximum
Reading: higher = stronger binding
Quantity: relative binding score
Parent: PYL1, truncated, DHFR fusion (Arabidopsis thaliana); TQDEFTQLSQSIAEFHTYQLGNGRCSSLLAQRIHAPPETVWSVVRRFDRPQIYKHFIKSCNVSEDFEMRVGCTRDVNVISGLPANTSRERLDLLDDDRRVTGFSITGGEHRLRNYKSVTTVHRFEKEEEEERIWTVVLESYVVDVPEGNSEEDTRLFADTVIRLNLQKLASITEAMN
K58V: 58.1%
S171K: 86.8%
R123Q: 98.9%
R155W: 15.7%
P36E: 80.8%

Other studies, line by line
PhoQ, residues 284 288 289 292 302 303 DDMDFR
fold induction (PhoP, residues 12 14 15 18 19 LYFRQ (Escherichia coli, UniProt P23836); Sort-seq, refers to: YFP reporter; E. coli; PhoQ-PhoP variant library, together with: 10 µM Mg2+; reference: high Mg2+ state, higher = stronger signaling): 0.929

Excerpt of the above (series 3):
R123Q: 98.9%
R155W: 15.7%
P36E: 80.8%
